Assay results collected from several papers.
Compare with care: the assays were run in different laboratories.
Target: histidine kinase ComD (Streptococcus pneumoniae serotype 2, UniProt A0A0H2ZM50)
Organism: Streptococcus pneumoniae
Residues used in one study (A0A0H2ZM50 1-441): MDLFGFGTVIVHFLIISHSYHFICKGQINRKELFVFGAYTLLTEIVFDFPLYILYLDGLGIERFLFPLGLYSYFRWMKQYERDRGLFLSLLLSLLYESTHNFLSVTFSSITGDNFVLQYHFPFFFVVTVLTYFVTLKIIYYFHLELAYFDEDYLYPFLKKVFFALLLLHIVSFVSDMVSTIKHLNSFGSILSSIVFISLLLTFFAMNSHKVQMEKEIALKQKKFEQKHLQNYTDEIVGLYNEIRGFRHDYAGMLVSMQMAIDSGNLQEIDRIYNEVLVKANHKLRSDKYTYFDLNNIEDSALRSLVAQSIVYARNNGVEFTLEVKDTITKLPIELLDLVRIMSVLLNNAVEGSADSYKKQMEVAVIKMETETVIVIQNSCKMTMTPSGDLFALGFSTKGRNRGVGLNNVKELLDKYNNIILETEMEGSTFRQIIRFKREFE

SMILES | test | test system | conditions | endpoint | value
CCC[C@H](NC(=O)[C@H](CCCNC(=N)N)NC(=O)[C@H](CCSC)NC(=O)[C@H](C)N)C(=O)N[C@@H](CO)C(=O)N[C@@H](CCCNC(=N)N)C(=O)N[C@H](C(=O)N[C@@H](Cc1ccccc1)C(=O)N[C@@H](CCCNC(=N)N)C(=O)N[C@H](CC(=O)O)C(=O)N[C@@H](Cc1ccccc1)C(=O)N[C@@H](CC(C)C)C(=O)N[C@@H](CC(C)C)C(=O)N[C@@H](CCC(N)=O)C(=O)N[C@@H](CCCNC(=N)N)C(=O)N[C@@H](CCCCN)C(=O)N[C@@H](CCCCN)C(=O)O)[C@@H](C)CC |  |  |  | IC50 | > 1 µM
CC[C@H](C)[C@H](NC(=O)[C@H](Cc1ccccc1)NC(=O)[C@@H]1CCCNC(=O)NCCC[C@H](NC(=O)[C@H](CO)NC(=O)[C@H](CC(C)C)NC(=O)[C@H](CCCNC(=N)N)NC(=O)[C@H](CCSC)NC(=O)[C@H](C)N)C(=O)N[C@@H](Cc2ccccc2)C(=O)N[C@@H](Cc2ccccc2)C(=O)N[C@@H](CCCNC(=N)N)C(=O)N1)C(=O)N[C@@H](CC(C)C)C(=O)N[C@@H](CCC(N)=O)C(=O)N[C@@H](CCCNC(=N)N)C(=O)N[C@@H](CCCCN)C(=O)N[C@@H](CCCCN)C(=O)O |  | Streptococcus pneumoniae cells |  | IC50 | > 1 µM
CC[C@H](C)[C@H](NC(=O)[C@H](Cc1ccccc1)NC(=O)[C@H](C)NC(=O)[C@H](C)NC(=O)[C@H](Cc1ccccc1)NC(=O)[C@H](Cc1ccccc1)NC(=O)[C@H](C)NC(=O)[C@H](C)NC(=O)[C@H](CC(C)C)NC(=O)[C@H](CCCNC(=N)N)NC(=O)[C@H](CCSC)NC(=O)[C@@H](N)CCC(=O)O)C(=O)N[C@@H](CC(C)C)C(=O)N[C@@H](C)C(=O)N[C@@H](CCCNC(=N)N)C(=O)N[C@@H](CCCCN)C(=O)N[C@@H](CCCCN)C(=O)O |  |  |  | EC50 | > 1 µM
CC[C@H](C)[C@H](NC(=O)[C@H](C)N)C(=O)N[C@@H](CCCNC(=N)N)C(=O)N[C@@H](CCC(N)=O)C(=O)N[C@H](C(=O)N[C@@H](Cc1c[nH]cn1)C(=O)N[C@@H](CC(N)=O)C(=O)N[C@H](C(=O)N[C@@H](Cc1ccccc1)C(=O)N[C@@H](Cc1ccccc1)C(=O)N[C@@H](Cc1ccccc1)C(=O)N[C@@H](CC(C)C)C(=O)N[C@@H](Cc1ccccc1)C(=O)N[C@@H](CCCCN)C(=O)N[C@@H](CCCNC(=N)N)C(=O)N[C@@H](CCCNC(=N)N)C(=O)O)[C@@H](C)CC)[C@@H](C)O | reporter gene, antagonist | D39 comX::lacZ | 30 min, 37 °C, with: CSP1 50 nM | IC50 | > 10 µM
CC[C@H](C)[C@H](NC(=O)[C@H](Cc1ccccc1)NC(=O)[C@H](C)NC(=O)[C@H](C)NC(=O)[C@H](Cc1ccccc1)NC(=O)[C@H](Cc1ccccc1)NC(=O)[C@H](C)NC(=O)[C@H](C)NC(=O)[C@H](CC(C)C)NC(=O)[C@H](CCCNC(=N)N)NC(=O)[C@H](CCSC)NC(=O)[C@@H](N)CCC(=O)O)C(=O)N[C@@H](C)C(=O)N[C@@H](C)C(=O)N[C@@H](CCCNC(=N)N)C(=O)N[C@@H](CCCCN)C(=O)N[C@@H](CCCCN)C(=O)O |  |  |  | EC50 | > 1 µM
CC[C@H](C)[C@H](NC(=O)[C@H](Cc1ccccc1)NC(=O)[C@@H]1CNC(=O)NCCC[C@H](NC(=O)[C@H](CO)NC(=O)[C@H](CC(C)C)NC(=O)[C@H](CCCNC(=N)N)NC(=O)[C@H](CCSC)NC(=O)[C@H](C)N)C(=O)N[C@@H](Cc2ccccc2)C(=O)N[C@@H](Cc2ccccc2)C(=O)N[C@@H](CCCNC(=N)N)C(=O)N1)C(=O)N[C@@H](CC(C)C)C(=O)N[C@@H](CCC(N)=O)C(=O)N[C@@H](CCCNC(=N)N)C(=O)N[C@@H](CCCCN)C(=O)N[C@@H](CCCCN)C(=O)O |  | Streptococcus pneumoniae cells |  | IC50 | > 1 µM
CC[C@H](C)[C@H](NC(=O)[C@@H](N)CCC(=O)O)C(=O)N[C@@H](CCCNC(=N)N)C(=O)N[C@@H](CCC(N)=O)C(=O)N[C@H](C(=O)N[C@@H](Cc1c[nH]cn1)C(=O)N[C@@H](Cc1ccccc1)C(=O)N[C@@H](Cc1ccccc1)C(=O)N[C@@H](Cc1ccccc1)C(=O)N[C@@H](Cc1ccccc1)C(=O)N[C@@H](Cc1ccccc1)C(=O)N[C@@H](Cc1ccccc1)C(=O)N[C@@H](Cc1ccccc1)C(=O)N[C@@H](CCCCN)C(=O)N[C@@H](CCCNC(=N)N)C(=O)N[C@@H](CCCNC(=N)N)C(=O)O)[C@@H](C)O | reporter gene, agonist | D39 comX::lacZ | 30 min, pH 7.3, 37 °C | EC50 | > 10 µM
CC[C@H](C)[C@H](NC(=O)[C@H](Cc1ccccc1)NC(=O)[C@H](CCCNC(=N)N)NC(=O)[C@H](CO)NC(=O)[C@H](CC(C)C)NC(=O)[C@H](CCCNC(=N)N)NC(=O)[C@H](CCSC)NC(=O)[C@@H](N)CCC(=O)O)C(=O)N[C@@H](CC(C)C)C(=O)N[C@@H](CC(=O)O)C(=O)N[C@@H](Cc1ccccc1)C(=O)N[C@@H](CC(C)C)C(=O)N[C@@H](Cc1ccccc1)C(=O)N[C@@H](CC(C)C)C(=O)N[C@@H](CCCNC(=N)N)C(=O)O |  |  |  | EC50 | > 1 µM
CC[C@H](C)[C@H](NC(=O)[C@H](Cc1ccccc1)NC(=O)[C@@H]1CCCNC(=O)NCC[C@H](NC(=O)[C@H](CO)NC(=O)[C@H](CC(C)C)NC(=O)[C@H](CCCNC(=N)N)NC(=O)[C@H](CCSC)NC(=O)[C@H](C)N)C(=O)N[C@@H](Cc2ccccc2)C(=O)N[C@@H](Cc2ccccc2)C(=O)N[C@@H](CCCNC(=N)N)C(=O)N1)C(=O)N[C@@H](CC(C)C)C(=O)N[C@@H](CCC(N)=O)C(=O)N[C@@H](CCCNC(=N)N)C(=O)N[C@@H](CCCCN)C(=O)N[C@@H](CCCCN)C(=O)O |  | Streptococcus pneumoniae cells |  | IC50 | > 1 µM
CC[C@H](C)[C@H](NC(=O)[C@H](CC(N)=O)NC(=O)[C@H](Cc1c[nH]cn1)NC(=O)[C@@H](NC(=O)[C@H](CCC(N)=O)NC(=O)[C@H](CCCNC(=N)N)NC(=O)[C@H](CCSC)NC(=O)[C@H](C)N)[C@@H](C)O)C(=O)N[C@@H](Cc1ccccc1)C(=O)N[C@@H](Cc1ccccc1)C(=O)N[C@@H](CC(N)=O)C(=O)N[C@@H](CC(C)C)C(=O)N[C@@H](Cc1ccccc1)C(=O)N[C@@H](CCCCN)C(=O)N[C@@H](CCCNC(=N)N)C(=O)N[C@@H](CCCNC(=N)N)C(=O)O | reporter gene, antagonist | D39 comX::lacZ | 30 min, 37 °C, with: CSP1 50 nM | IC50 | > 10 µM

For quick reference, copied from above:
SMILES | test | test system | conditions | endpoint | value
CCC[C@H](NC(=O)[C@H](CCCNC(=N)N)NC(=O)[C@H](CCSC)NC(=O)[C@H](C)N)C(=O)N[C@@H](CO)C(=O)N[C@@H](CCCNC(=N)N)C(=O)N[C@H](C(=O)N[C@@H](Cc1ccccc1)C(=O)N[C@@H](CCCNC(=N)N)C(=O)N[C@H](CC(=O)O)C(=O)N[C@@H](Cc1ccccc1)C(=O)N[C@@H](CC(C)C)C(=O)N[C@@H](CC(C)C)C(=O)N[C@@H](CCC(N)=O)C(=O)N[C@@H](CCCNC(=N)N)C(=O)N[C@@H](CCCCN)C(=O)N[C@@H](CCCCN)C(=O)O)[C@@H](C)CC |  |  |  | IC50 | > 1 µM
